Assay results of several laboratories.
Numbered parts are unrelated; each lists some results of a single study.

Set 1 — method: protein binding microarray; form: double-stranded DNA, one strand shown; sample: in vitro; concentration: not given; reference: not given; direction: higher = stronger binding
Target: Histone acetyltransferase KAT6A, winged helix 1, GST fusion (KAT6A, Homo sapiens, UniProt Q92794, residues 1-85)
Notes: 8-mer, flanks averaged, mean of 2 arrays, mostly near background
Construct (chain): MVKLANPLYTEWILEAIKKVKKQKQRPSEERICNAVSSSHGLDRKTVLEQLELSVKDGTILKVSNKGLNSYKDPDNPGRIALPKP
Strand | E-score
ATCCGTTC | 0.116
AGGGGGCG | 0.146
ATTTGACC | -0.0673
AACAGGAT | -0.19
ATGTCGCA | 0.0612
CGATTGAC | -0.0243
AAGTCGGG | 0.114
AACAGCTC | -0.0347
CATGAAGG | -0.116
AGGTATTG | -0.0799
ACTAAACC | 0.0263
AAAGTAAC | -0.00012
ATTTTGTA | -0.0798
AGTGACAG | -0.0923
CTCTAGAC | -0.285
CACGGATC | 0.269
TCTCAGCA | -0.252
GGTCGAAA | -0.0953
CACCTTAG | -0.165
ACAGTGGG | -0.208
CCGCCTGA | 0.298
AAAGGAAG | -0.108
AGAGCCAG | -0.273
ACCCATCG | -0.0949
AGCCCGCA | 0.134

Set 2 — method: protein-binding microarray; form: double-stranded DNA, one strand shown; sample: in vitro; concentration: 940 nM top; notes: 60-bp whole probe; with: salmon DNA 0.4 mg/ml; reference: random background probes; direction: higher = stronger binding; all sequences stand within: GCCTAGCAC … GTCTTGATTCGCTTGACGCTGCTG
Target: Interferon regulatory factor 5, full length, phosphomimetic (IRF5, Homo sapiens, UniProt Q13568-2, residues 1-514, S451D/S453D/S456D/S462D)
Strand | fitted relative affinity [z-score]
GCTAGTGTGCCATATTTATCTGTGCTA | -0.225
GACGGACTGGGTCTCGTGACGTGCTAG | -0.157
GACGGACTGCTAGTGCTGACGTGCTAG | -0.49
TTAGGACTGAGGTATCGGTTAGTGCTA | 2.2
AGGATCCAGCCTGCAACCTCGTGCTAG | -0.709
GACGGACTGCGTTTCGGGACGTGCTAG | 0.487
TTAGATATCGGCTATCGATTAGTGCTA | 0.364
TTAGGTTTCCTTTCCCGTTAGTGCTAG | 2.18
TCACCTTTCTCTTGGAGACTGTGCTAG | 0.79
TTAGGTTTCCTTTCCCTTTTGTGCTAG | 2.11
GACGATATCAGGACTGGAGACGTGCTA | -0.559
TCAATTTTCACGGTGGGACTGTGCTAG | 0.208
GACTATCTCAGTATCGAGACGTGCTAG | 2.25
GACGATCTCAGGATCGAGACGTGCTAG | -0.412
TTAGTACTGAGTTTCGATTAGTGCTAG | 7.25
GACGATCTCAGTTTCGTGACGTGCTAG | 1.98
TTAGGTTCCGGTTTCGATTAGTGCTAG | 7.94
GACGAACTGAGTATCGACACGTGCTAG | 1.69
GCCGAACTGAGACTGGAGACGTGCTAG | -0.416

Set 3 — method: RNA Bind-n-Seq; form: RNA; sample: in vitro; concentration: 200 nM; notes: whole 134-nt RNA, ends assumed; with: 150 mM LiCl; reference: input library; direction: higher = stronger binding; library: 7-deaza-guanosine replaces G
Target: Ras GTPase-activating protein-binding protein 1, full length (G3BP1, Homo sapiens, UniProt Q13283)
UniProt Q13283, sequence (whole entry, looked up): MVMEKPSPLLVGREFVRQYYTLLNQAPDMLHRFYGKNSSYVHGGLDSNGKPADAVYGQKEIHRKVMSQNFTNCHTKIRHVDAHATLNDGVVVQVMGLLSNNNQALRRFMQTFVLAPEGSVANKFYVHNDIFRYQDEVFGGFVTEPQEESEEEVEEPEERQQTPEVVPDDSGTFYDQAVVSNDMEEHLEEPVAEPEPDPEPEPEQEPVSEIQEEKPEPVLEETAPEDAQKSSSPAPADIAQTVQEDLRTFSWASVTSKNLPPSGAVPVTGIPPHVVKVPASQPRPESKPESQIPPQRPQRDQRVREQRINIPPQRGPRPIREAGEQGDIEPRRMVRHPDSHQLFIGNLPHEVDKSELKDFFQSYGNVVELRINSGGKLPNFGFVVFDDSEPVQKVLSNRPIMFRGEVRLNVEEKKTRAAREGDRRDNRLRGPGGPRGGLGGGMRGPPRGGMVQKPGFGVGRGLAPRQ
Strand | log2 enrichment
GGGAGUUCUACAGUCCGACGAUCAAGUCCUGUGCUACACAUCGUAUGUACCGAAUCGUGUGUGUGUGUGUGUGUGUGUGAAAGUAUUAUGUUACGCCGUUCGGAUCUGCACUUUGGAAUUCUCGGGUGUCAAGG | -0.639
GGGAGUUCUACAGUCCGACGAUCCACAGACAACACGCACCUACACAGACACAGAGGGAAGGGGUUGGGAUGGGGACAGGGUGCACAGCAGGGCGGGGUAGGACCCCAGCCCCUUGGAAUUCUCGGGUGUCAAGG | 0.387
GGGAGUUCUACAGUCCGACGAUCCACAGACAACACGCACCCACACAGACACAGAGGGAAGGGGUUGGGAUGGGGACAGGGUGCACAUCAGGGCGGGGUAGGACCCCAGCCCCUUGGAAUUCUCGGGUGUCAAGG | 0.0338
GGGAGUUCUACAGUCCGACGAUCUAACUUUAGAGGAGGAUCUGAUGGAUAUGGCAGUGGACGUGGAUUUGAGGAUGGCUAUAAUGGGUAUGGAGGAGGACCUGGAGGUGGCAAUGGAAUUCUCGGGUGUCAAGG | -0.142
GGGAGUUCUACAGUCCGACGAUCCUGUGCUACACAUCGUAUGUACCGAAUCGGGAAAAAAAGGGAAAAAAAGGAAAAAAAGGGGAAAGUAUUAUGUUACGCCGUUCGGAUCUGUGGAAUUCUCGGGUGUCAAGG | -0.0533
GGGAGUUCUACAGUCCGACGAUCUCCUGUGCUACACAUCGUAUGUACCGAAUCGGGCCCCCCGGGCCCCCCGGGCCCCCCGGAAAGUAUUAUGUUACGCCGUUCGGAUCUGCAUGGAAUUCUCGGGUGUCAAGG | -0.655
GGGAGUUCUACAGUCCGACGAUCCUGUGCUACACAUCGUAUGUACCGAAUCGGGGAAAAAAAGGGGUUUGGGGAAAAAAAGGGGAAAGUAUUAUGUUACGCCGUUCGGAUCUGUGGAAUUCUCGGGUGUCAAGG | -0.293
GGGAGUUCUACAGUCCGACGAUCCCUGUGCUACACAUCGUAUGUACCGAAUCGGGAAAAAAAGGGGAAAAAAAGGAAAAAAAGGAAAGUAUUAUGUUACGCCGUUCGGAUCUGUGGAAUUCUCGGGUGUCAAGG | 0.24

Set 4 — method: universal PBM; form: double-stranded DNA, one strand shown; sample: in vitro; concentration: not given; direction: higher = stronger binding
Target: Sal-like protein 4, full length isoform B (SALL4, Homo sapiens, UniProt Q9UJQ4-2, residues 1-616)
Notes: 8-mer, flanks averaged, mean of replicates
Strand | E-score
AAGACCCC | -0.155
TAAACTGA | 0.117
TCAGAGCA | -0.23
AGCGCCTA | -0.145
AATGTTGC | 0.177
CATCGATA | 0.119
AATTACGT | 0.222
ATCTCGCC | -0.243
ACCCTCGG | -0.216
AATGCAAC | 0.14
ATGCCTCC | -0.148
ATGAGCAT | 0.169
ACCCGCAA | -0.197
ATTAGCGC | 0.0607
CTTCTTCA | 0.0196
AGAGAATA | 0.156
CGACCAAA | 0.0051
ACTTTGAA | 0.211
TAAGGGGA | -0.0366
GGTAAAAC | 0.021

Mixed results
Substance | target | assay | test system | setting | scale | measurement | value
PhoQ, residues 284 288 289 292 302 303 SSLVEF | PhoP, residues 12 14 15 18 19 AQALL (Escherichia coli, UniProt P23836) | Sort-seq, item: YFP reporter | E. coli | PhoQ-PhoP variant library, with: 10 µM Mg2+ | reference: high Mg2+ state, higher = stronger signaling | fold induction | 14.7

For quick reference, copied from above (set 3):
Strand | log2 enrichment
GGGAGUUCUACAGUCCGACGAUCCCUGUGCUACACAUCGUAUGUACCGAAUCGGGAAAAAAAGGGGAAAAAAAGGAAAAAAAGGAAAGUAUUAUGUUACGCCGUUCGGAUCUGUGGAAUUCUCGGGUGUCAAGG | 0.24
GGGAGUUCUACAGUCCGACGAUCCACAGACAACACGCACCCACACAGACACAGAGGGAAGGGGUUGGGAUGGGGACAGGGUGCACAUCAGGGCGGGGUAGGACCCCAGCCCCUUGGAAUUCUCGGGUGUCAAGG | 0.0338
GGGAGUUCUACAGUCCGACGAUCCACAGACAACACGCACCUACACAGACACAGAGGGAAGGGGUUGGGAUGGGGACAGGGUGCACAGCAGGGCGGGGUAGGACCCCAGCCCCUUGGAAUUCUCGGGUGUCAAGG | 0.387
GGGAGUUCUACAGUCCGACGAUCCUGUGCUACACAUCGUAUGUACCGAAUCGGGGAAAAAAAGGGGUUUGGGGAAAAAAAGGGGAAAGUAUUAUGUUACGCCGUUCGGAUCUGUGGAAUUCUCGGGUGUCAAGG | -0.293
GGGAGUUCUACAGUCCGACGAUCCUGUGCUACACAUCGUAUGUACCGAAUCGGGAAAAAAAGGGAAAAAAAGGAAAAAAAGGGGAAAGUAUUAUGUUACGCCGUUCGGAUCUGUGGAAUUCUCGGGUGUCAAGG | -0.0533
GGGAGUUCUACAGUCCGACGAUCUAACUUUAGAGGAGGAUCUGAUGGAUAUGGCAGUGGACGUGGAUUUGAGGAUGGCUAUAAUGGGUAUGGAGGAGGACCUGGAGGUGGCAAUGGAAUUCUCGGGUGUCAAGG | -0.142
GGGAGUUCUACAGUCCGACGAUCAAGUCCUGUGCUACACAUCGUAUGUACCGAAUCGUGUGUGUGUGUGUGUGUGUGUGAAAGUAUUAUGUUACGCCGUUCGGAUCUGCACUUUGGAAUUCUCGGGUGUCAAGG | -0.639
